Results of several laboratories.
Each line is one published result; not all experiments were run side by side.
EGFR: Epidermal growth factor receptor (EGFR, Homo sapiens, UniProt P00533)
EGFR L858R: Epidermal growth factor receptor (EGFR, Homo sapiens, UniProt P00533, L858R)
EGFR del746-750: Epidermal growth factor receptor (EGFR, Homo sapiens, UniProt P00533, del746-750)
EGFR T790M: Epidermal growth factor receptor (EGFR, Homo sapiens, UniProt P00533, T790M)

Compound	target	assay	test system	setting	how to read	quantity	result
[2H]c1cc(C)c(NC(=O)c2cnc(Nc3cc(N4CCCCC4)nc(C)n3)s2)c(Cl)c1	EGFR	–	–	0.01 µM	–	inhibition	< 30%
C=CC(=O)N1CCC(C(=O)NCC(=O)N2CCN(c3nc(-c4cnc(N)nc4C(F)F)nc(N4CCOCC4)n3)CC2)CC1	EGFR L858R	KINOMEscan	–	1 µM	–	remaining binding	100%
COc1cc(N2CCN(C)CC2)ccc1Nc1nc(N)n(C(=S)NCc2c(Cl)cccc2Cl)n1	EGFR del746-750	enzyme activity	–	10 µM	reference: control	remaining activity	2.1%
COc1ccc(-c2nn(-c3ccc(S(C)(=O)=O)cc3)cc2/C=N/N=c2\[nH]c(-c3ccc(Br)cc3)cs2)cc1	EGFR	kinase activity, inhibitor	–	100 µM	–	inhibition	93.4%
C=CC(=O)N1CCC(COCC(=O)N2CCN(c3nc(-c4cnc(N)nc4C(F)F)nc(N4CCOC[C@@H]4C)n3)CC2)CC1	EGFR T790M	KINOMEscan	–	1 µM	reference: DMSO control	remaining binding	86%
CCOc1cc(N2CCN(C)CC2)ccc1Nc1nc(N)n(C(=O)NCc2ccccc2S(=O)(=O)C(C)C)n1	Epidermal growth factor receptor (EGFR, Homo sapiens, UniProt P00533, del752-759)	enzyme activity	–	10 µM	reference: control	remaining activity	12%
COc1ccc(-c2nn(-c3ccc(S(C)(=O)=O)cc3)cc2C=N/N=c2\[nH]c(-c3ccc([N+](=O)[O-])cc3)cs2)cc1	EGFR L858R	kinase activity, inhibitor	–	0.1 µM	–	inhibition	61.5%
CC(C)C[C@H](NC(=O)[C@H](CO)NC(=O)[C@H](CO)NC(=O)CNC(=O)[C@@H]1CCCN1C(=O)[C@H](Cc1ccc(O)cc1)NC(=O)[C@H](CC(C)C)NC(=O)[C@H](CO)NC(=O)[C@H](CS)NC(=O)[C@H](CC(C)C)NC(=O)[C@@H](N)CC(C)C)C(=O)O	Epidermal growth factor receptor, extracellular domain (EGFR, Homo sapiens, UniProt P00533)	binding, second site, surface plasmon resonance	immobilised soluble EGFR	model, binding, one to two	–	koff	0.00343 s⁻¹
CC(C)Cc1ccc(-c2nn(-c3ccc(S(C)(=O)=O)cc3)cc2/C=N/N=c2\[nH]c(-c3ccc([N+](=O)[O-])cc3)cs2)cc1	EGFR	kinase activity, inhibitor	–	100 µM	–	inhibition	91.4%
C[C@@H](c1ccc(-n2cnc3c(N)ncnc32)cc1)N1CCc2nn(C)c(Cc3ccccc3)c2C1=O	EGFR T790M	KINOMEscan	–	0.1 µM	reference: DMSO control	remaining binding	90%
O=C(NC1CCC1)c1ccc2nc(-c3cccc(NS(=O)(=O)NCCN4CCCCC4)c3)cn2c1	Epidermal growth factor receptor (EGFR, Homo sapiens, UniProt P00533, G719C)	enzyme activity	–	10 µM	–	remaining activity	100%
COc1cc(N2CCN(C)CC2)ccc1Nc1nc(N)n(C(=O)NCc2ccccc2S(=O)(=O)C(C)C)n1	EGFR L858R	enzyme activity	–	10 µM	reference: control	remaining activity	6.2%
CC(C)C[C@H](NC(=O)[C@H](CO)NC(=O)[C@H](CO)NC(=O)CNC(=O)[C@@H]1CCCN1C(=O)[C@H](Cc1ccc(O)cc1)NC(=O)[C@H](CC(C)C)NC(=O)[C@H](CO)NC(=O)[C@H](CS)NC(=O)[C@H](CC(C)C)NC(=O)[C@H](CC(C)C)NC(=O)CCCCCNC(=S)Nc1ccc2c(c1)C(=O)OC21c2ccc(O)cc2Oc2cc(O)ccc21)C(=O)O	EGFR	binding, second site, LigandTracer cell binding	A-431	FITC-labelled, model, binding, one to two	–	kon	1360 M⁻¹ s⁻¹
COc1cc(N2CCN(C)CC2)ccc1Nc1nc(N)n(C(=O)NCc2c(Cl)cccc2Cl)n1	Epidermal growth factor receptor (EGFR, Homo sapiens, UniProt P00533, A750P/del747-749)	enzyme activity	–	10 µM	reference: control	remaining activity	7.1%
COc1cc2ncnc(Nc3ccc(F)c(Cl)c3)c2cc1OCCCN1CCN(C(=O)CCOCCOCCOCCOCCOCCNc2ccc3c(c2)C(=O)N(C2CCC(=O)NC2=O)C3=O)CC1 (stereo not drawn)	EGFR del746-750	protein degradation, degrader, western blot	HCC827	100 nM	–	time to significant reduction	≤ 4 h
CC(C)Oc1cc(N2CCN(C)CC2)ccc1Nc1nc(N)n(C(=O)NCc2ccccc2S(=O)(=O)C(C)C)n1	Epidermal growth factor receptor (EGFR, Homo sapiens, UniProt P00533, del747-752/P753S)	enzyme activity	–	10 µM	reference: control	remaining activity	15%
C#Cc1cccc(Oc2ccc(-c3nn([C@@H]4CCCN(C(=O)C=C)C4)c4ncnc(N)c34)cc2)c1	EGFR	ABPP-SILAC	–	1 µM, 1 h	reference: DMSO	SILAC ratio	11
CCCOc1ccc(OC)c(F)c1C(=O)c1ccc(C(=O)N[C@@H]2CNC[C@H]2NC(=O)c2ccc3[nH]ncc3c2)cc1	EGFR L858R	enzyme activity	–	10 µM	–	remaining activity	77%

Repeated from above:
Compound	target	assay	test system	setting	how to read	quantity	result
COc1ccc(-c2nn(-c3ccc(S(C)(=O)=O)cc3)cc2C=N/N=c2\[nH]c(-c3ccc([N+](=O)[O-])cc3)cs2)cc1	EGFR L858R	kinase activity, inhibitor	–	0.1 µM	–	inhibition	61.5%
